# Assay results collected from several papers.
# Parts stem from different laboratories: compare values within a part only.

# Study 1
# Target: Prothrombin, mature alpha-thrombin (F2, Homo sapiens, UniProt P00734)
# Technique: aptamer microarray, sandwich
# Molecule type: DNA with 2'F-ANA
# Sample: in vitro
# Concentration: 200 nM
# Notes: whole 15-mer aptamer, many near background
# Added: Cy3 exosite-II aptamer, 400 nM
# Direction: higher = stronger binding
# Strand: GGTTGGTGTGGTTGG
Modification,mean fluorescence intensity
2'F-ANA at 4 5 6 8 9 11 13,82.2 a.u.
2'F-ANA at 1 2 5 6 8 10 13 14,49.5 a.u.
2'F-ANA at 3 4 5 7 9 11 15,83.5 a.u.
2'F-ANA at 1 4 7 8 10 12 13 15,58.2 a.u.
2'F-ANA at 3 6 10 11 12 13 14 15,360 a.u.
2'F-ANA at 3 4 5 6 9 10 11,53.6 a.u.

# Study 2
# Target: Centromere-binding protein 1, full length, N-terminal tag (CBF1, Saccharomyces cerevisiae, UniProt P17106, residues 1-351)
# Chain of UniProt P17106 (whole entry, looked up): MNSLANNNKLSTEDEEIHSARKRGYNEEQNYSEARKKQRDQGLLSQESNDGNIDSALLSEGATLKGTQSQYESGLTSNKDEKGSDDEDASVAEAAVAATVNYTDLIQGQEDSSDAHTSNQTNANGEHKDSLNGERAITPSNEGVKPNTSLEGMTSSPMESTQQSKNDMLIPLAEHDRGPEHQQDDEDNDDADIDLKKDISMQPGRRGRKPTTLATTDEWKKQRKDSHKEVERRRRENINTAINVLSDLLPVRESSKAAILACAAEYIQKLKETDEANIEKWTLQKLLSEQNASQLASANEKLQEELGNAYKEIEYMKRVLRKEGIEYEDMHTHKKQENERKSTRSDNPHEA
# Technique: protein-binding microarray
# Molecule type: double-stranded DNA, one strand shown
# Sample: in vitro
# Concentration: 0.8 µM
# Notes: whole 60-bp probe, no competitor
# Direction: higher = stronger binding
# All sequences stand within: … GTCTTGATTCGCTTGACGCTGCTG
Strand,fluorescence intensity
GAATACAGAATAATGCACACGTATAAAGTACCATAG,520 a.u.
GAACAATATCCAAACCAGCATCAGGAAAAGCCTTAG,527 a.u.
GAAAACACCAAAAATCACGTTTTCAAAATATGTTAG,1570 a.u.
CCTAACTACTATATGCACGTCAAATAGCTTCGTACA,574 a.u.
CTACCCTACCGTCATCATATGAAATATCAATCTTTC,538 a.u.

# Study 3
# Target: Sal-like protein 4, full length isoform A (SALL4, Homo sapiens, UniProt Q9UJQ4, residues 1-1053)
# Chain of UniProt Q9UJQ4 (whole entry, looked up): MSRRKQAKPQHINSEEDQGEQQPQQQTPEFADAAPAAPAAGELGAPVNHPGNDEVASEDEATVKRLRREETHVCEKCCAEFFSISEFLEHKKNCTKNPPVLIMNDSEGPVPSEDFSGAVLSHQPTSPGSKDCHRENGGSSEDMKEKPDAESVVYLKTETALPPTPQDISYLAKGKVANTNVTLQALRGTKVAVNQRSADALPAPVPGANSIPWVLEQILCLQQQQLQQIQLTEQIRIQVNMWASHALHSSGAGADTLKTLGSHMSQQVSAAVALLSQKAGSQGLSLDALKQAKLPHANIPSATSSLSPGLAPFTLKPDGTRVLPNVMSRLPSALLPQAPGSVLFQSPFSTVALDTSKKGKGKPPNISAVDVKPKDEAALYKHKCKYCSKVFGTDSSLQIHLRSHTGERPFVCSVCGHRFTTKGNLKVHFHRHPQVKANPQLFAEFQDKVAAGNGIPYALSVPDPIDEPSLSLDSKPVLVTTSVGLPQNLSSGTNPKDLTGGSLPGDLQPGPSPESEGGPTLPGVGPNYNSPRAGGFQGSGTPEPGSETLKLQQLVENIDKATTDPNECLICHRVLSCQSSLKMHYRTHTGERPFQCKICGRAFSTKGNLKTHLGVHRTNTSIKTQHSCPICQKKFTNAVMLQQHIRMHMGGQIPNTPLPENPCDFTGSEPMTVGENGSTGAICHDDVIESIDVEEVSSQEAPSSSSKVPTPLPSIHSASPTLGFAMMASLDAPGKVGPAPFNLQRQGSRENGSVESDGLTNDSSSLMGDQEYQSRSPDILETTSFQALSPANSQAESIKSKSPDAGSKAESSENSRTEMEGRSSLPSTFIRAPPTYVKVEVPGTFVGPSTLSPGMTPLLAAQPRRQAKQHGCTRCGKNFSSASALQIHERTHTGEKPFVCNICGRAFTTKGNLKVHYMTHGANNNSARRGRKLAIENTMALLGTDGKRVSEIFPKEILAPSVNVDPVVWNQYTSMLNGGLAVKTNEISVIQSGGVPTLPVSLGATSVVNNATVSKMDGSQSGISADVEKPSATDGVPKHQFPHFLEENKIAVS
# Technique: universal PBM
# Molecule type: double-stranded DNA, one strand shown
# Sample: in vitro
# Concentration: 600 nM
# Notes: 8-mer, flanks averaged, mean of replicates
# Direction: higher = stronger binding
Strand,E-score
CCGTCGAG,-0.163
ATCGCTCA,-0.111
AGGCCACC,-0.288
CAGACGAG,-0.0256
ACGCTCGA,-0.112
GATCTATA,0.289

# Single results of other studies
Substance,target,assay,system,conditions,scale,quantity,value
"PhoQ, residues 284 288 289 292 302 303 SLKLQV","PhoP, residues 12 14 15 18 19 SYFRT (Escherichia coli, UniProt P23836)","Sort-seq, item: YFP reporter",E. coli,"PhoQ-PhoP variant library, added: 10 µM Mg2+","reference: high Mg2+ state, higher = stronger signaling",fold induction,1.18

# Repeated from above (study 2):
Strand,fluorescence intensity
GAAAACACCAAAAATCACGTTTTCAAAATATGTTAG,1570 a.u.
CCTAACTACTATATGCACGTCAAATAGCTTCGTACA,574 a.u.
